Measurements of several laboratories.
Numbered parts are unrelated; each lists some results of a single study.

Set 1 — method: aptamer microarray, sandwich; molecule type: DNA with 2'F-ANA; medium: in vitro; concentration: 200 nM; together with: Cy3 exosite-II aptamer, 400 nM; reading: higher = stronger binding; sequence: GGTTGGTGTGGTTGG
Target: Prothrombin, mature alpha-thrombin (F2, Homo sapiens, UniProt P00734)
Setting: whole 15-mer aptamer, many near background
Under “mean fluorescence intensity”, `2'F-ANA at 9 10 11 12 13` is recorded as 171 a.u.
`2'F-ANA at 1 2 7 11 15` — result for “mean fluorescence intensity”: 151 a.u.
`2'F-ANA at 3 4 9 11 15` — result for “mean fluorescence intensity”: 542 a.u.
For `2'F-ANA at 1 5 7 9 10 11 14 15`, “mean fluorescence intensity” read 48.4 a.u.
`2'F-ANA at 3 4 5 6 7 9 11 12` — result for “mean fluorescence intensity”: 158 a.u.
`2'F-ANA at 1 3 5 7 10 11 13 15`: “mean fluorescence intensity” 46.3 a.u.
Under “mean fluorescence intensity”, `2'F-ANA at 1 4 6 7 8 9 11` is recorded as 107 a.u.
For `2'F-ANA at 1 2 6 7 14`, “mean fluorescence intensity” read 52 a.u.
`2'F-ANA at 1 3 4 5 6 7 10`: “mean fluorescence intensity” 44.1 a.u.
Under “mean fluorescence intensity”, `2'F-ANA at 1 2 4 5 6 7 9 11 13 15` is recorded as 62.4 a.u.
`2'F-ANA at 2 3 5 6 7 8 9 12 13 15` — result for “mean fluorescence intensity”: 150 a.u.
`2'F-ANA at 4 5 6 7 8 9 11 12`: “mean fluorescence intensity” 96 a.u.
`2'F-ANA at 4 9 11 12`: “mean fluorescence intensity” 415 a.u.

Set 2 — method: universal PBM; molecule type: double-stranded DNA, one strand shown; medium: in vitro; concentration: 600 nM; reading: higher = stronger binding
Target: Sal-like protein 4, full length isoform A (SALL4, Homo sapiens, UniProt Q9UJQ4, residues 1-1053)
Chain of UniProt Q9UJQ4 (whole entry, looked up): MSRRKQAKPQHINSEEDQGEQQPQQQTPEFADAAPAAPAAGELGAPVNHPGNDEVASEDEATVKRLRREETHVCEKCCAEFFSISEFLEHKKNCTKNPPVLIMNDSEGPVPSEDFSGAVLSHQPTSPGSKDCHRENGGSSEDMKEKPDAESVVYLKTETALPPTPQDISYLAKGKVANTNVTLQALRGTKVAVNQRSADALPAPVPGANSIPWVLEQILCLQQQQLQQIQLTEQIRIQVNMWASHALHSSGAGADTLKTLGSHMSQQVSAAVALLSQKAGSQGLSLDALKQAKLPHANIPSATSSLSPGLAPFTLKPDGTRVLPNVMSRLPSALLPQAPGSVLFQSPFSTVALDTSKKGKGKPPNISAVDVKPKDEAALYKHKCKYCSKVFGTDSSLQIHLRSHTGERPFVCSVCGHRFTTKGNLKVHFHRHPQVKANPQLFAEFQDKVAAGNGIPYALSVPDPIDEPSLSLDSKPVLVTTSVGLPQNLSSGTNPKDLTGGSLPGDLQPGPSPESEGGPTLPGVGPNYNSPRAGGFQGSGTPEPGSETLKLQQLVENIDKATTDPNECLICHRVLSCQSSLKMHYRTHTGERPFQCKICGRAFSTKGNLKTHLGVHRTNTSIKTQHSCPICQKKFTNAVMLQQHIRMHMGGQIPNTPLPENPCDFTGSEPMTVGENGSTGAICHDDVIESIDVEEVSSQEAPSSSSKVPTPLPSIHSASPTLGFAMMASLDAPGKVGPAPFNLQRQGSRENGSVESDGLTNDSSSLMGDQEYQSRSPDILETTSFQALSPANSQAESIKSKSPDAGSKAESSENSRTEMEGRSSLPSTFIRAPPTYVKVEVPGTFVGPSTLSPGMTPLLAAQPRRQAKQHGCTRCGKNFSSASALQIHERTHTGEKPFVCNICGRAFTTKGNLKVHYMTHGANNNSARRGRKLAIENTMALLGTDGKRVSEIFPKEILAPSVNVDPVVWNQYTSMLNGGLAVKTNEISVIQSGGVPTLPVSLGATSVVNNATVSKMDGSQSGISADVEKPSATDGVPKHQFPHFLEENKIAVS
Setting: 8-mer, flanks averaged, mean of replicates
With `ACACCATA` the E-score was 0.188.
`AAGACTGA` gave an E-score of 0.116.
For `TCATTCAA`, the E-score was 0.198.
With `CGGGTGCC` the E-score was -0.347.
With `CAGACATC` the E-score was -0.115.
For `CGGACTCC`, the E-score was -0.263.
For `ATTTGGAC`, the E-score was 0.13.

Set 3 — method: RNA Bind-n-Seq; molecule type: RNA; medium: in vitro; concentration: 200 nM; setting: whole 134-nt RNA, ends assumed; together with: 150 mM KCl; relative to: input library; reading: higher = stronger binding
Target: Fragile X messenger ribonucleoprotein 1, C-terminal low-complexity region (Fmr1, Mus musculus, UniProt P35922)
Shared flanks, not repeated: GGGAGUUCUACAGUCCGACGAUC … UGGAAUUCUCGGGUGUCAAGG
For `UGGGAGGUGGAUUUUGUUUAUUUUUUUAGCUCAUUUCCAGGGGUGGGAAUUUUUUUUUAAUAUGUGUCAUGGAUAAAGUUGUUUUUGAAA`, the log2 enrichment was 0.528.
`ACCAUGCAGGUGGGCAUCUUUGGGAAGUGGGGCAAGGGGGGGAUAGGGAGGGGGGUAACACUUUGGGAACAGGUGGUCCCAGGUCGUGUC` has a log2 enrichment of 0.701.
`GCAGGAAGUAAAAACAAAUGGAAAUGCUUCGGAUUGUGGCAGGGGUGGGGGUUGCUAAGGAAAGGGUGGGAUGGGAGUGGGUAAAGAGUU` has a log2 enrichment of 0.27.
The log2 enrichment of `UCAAGUCCUGUGCUACACAUCGUAUGUACCGAAUCGGGUUGGGUUGGGUUGGGGAAAGUAUUAUGUUACGCCGUUCGGAUCUGCACUUCC` is reported as 1.43.
For `UGAACAGCUCUGCGCUUUUUGUUACUGUGGGGAAAAAAGUUCCUUAGGACAAGGAGACUUAAAACAAUUCAGAAUAACGCCUGGAUUUAU`, the log2 enrichment was -0.776.
With `UUUAGUGACUUUGGAUGAAGUAACUGAAGAGGAUGAAGACUCUCUGGCGGAUUUUAACAACCUUAAAGAAGAGCUUAAUUUUGUUACUGU` the log2 enrichment was -1.62.
The log2 enrichment of `CCUGUGCUACACAUCGUAUGUACCGAAUCAAACCCCCAAAUUUUUUUAAACCCCCCCAAAAAAGUAUUAUGUUACGCCGUUCGGAUCUGC` is reported as 0.0285.
`CAAGUCCUGUGCUACACAUCGUAUGUACCGAAUCGGUUUUGGUUUUGGUUUUGGGAAAGUAUUAUGUUACGCCGUUCGGAUCUGCACUUC` has a log2 enrichment of -0.767.

Further values, each from its own experiment
`PhoQ, residues 284 288 289 292 302 303 SMYGEC` has a fold induction of 9.97 (PhoP, residues 12 14 15 18 19 QYFSL (Escherichia coli, UniProt P23836); Sort-seq, measured: YFP reporter; E. coli; PhoQ-PhoP variant library, together with: 10 µM Mg2+; relative to: high Mg2+ state, higher = stronger signaling).

Repeated from above (set 2):
With `CGGGTGCC` the E-score was -0.347.
For `ATTTGGAC`, the E-score was 0.13.
With `ACACCATA` the E-score was 0.188.
